Measured values of several laboratories.
Protocols differ between the studies behind these lines.
Cell line: MDA-MB-468

SMILES | assay | conditions | quantity | result
C#CCCCC(O)/C=C/C(=O)NC1(c2ccc(-c3nc4ccn5c(=O)[nH]nc5c4cc3-c3ccccc3)cc2)CCC1 (stereo not shown) | flow cytometry PI | EC60, 72 h | G2/M phase cells | 26.1%
O=C(c1ccncc1)N1CCN(CC(OCc2ccc3ccccc3c2)c2ccc(Cl)cc2Cl)CC1 (stereo not shown) | cell growth or viability, MTT | 24 h | IC50 | 42.4 µM
CC(C)NCCCn1c(Sc2cc(Br)cc(I)c2)nc2c(N)ncnc21 | cell growth or viability, resazurin | 72 h | IC50 | 0.08 µM
Clc1ccc(C(Cn2cncn2)OCc2ccc(Br)cc2)c(Cl)c1 (stereo not shown) | cell growth or viability, MTT | 24 h | IC50 | 38 µM
CC(C)NCCCn1c(Sc2cc(Cl)cc(Cl)c2)nc2c(N)ncnc21 | cell growth or viability, resazurin | 72 h | IC50 | 0.11 µM
CCCC(CCC)C(=O)OCc1cn(-c2cc3ccccc3oc2=O)nn1 | NCI60 single-dose screen | 10 µM | growth percentage | 94.5%
Clc1ccc(COC(Cn2cncn2)c2ccc(Cl)cc2Cl)cc1 (stereo not shown) | cell growth or viability, MTT | 24 h | IC50 | 40.9 µM
O=S1(=O)CC2CCCCC2CS1 (stereo not shown) | MTT | 100 µM, 72 h | viability | 1.74%
Cc1nc2c(F)cc(-c3nc(Nc4ccc(C(=O)NCCCCCC(=O)NO)cc4)ncc3F)cc2n1C(C)C | cell growth or viability, CCK-8 | 0.3 µM, 48 h | inhibition | 42%
Cc1cc(C)nc(NC(=S)N2CCN(Cc3ccc(C(F)(F)F)cc3)CC2)c1 | isotope labelling | concentration not given, 4 h, added: U-13C-serine | M+2 glycine pool | decreased
Clc1ccc(C(Cn2ccnc2)OCc2ccc(Br)cc2)c(Cl)c1 (stereo not shown) | cell growth or viability, MTT | 24 h | IC50 | > 50 µM
CCN(C(=O)c1cc(F)ccc1Oc1nncnc1N1CCC2(C1)CN([C@H](CCCN(C)CCOC)C(C)C)C2)C(C)C | cell growth or viability | 7 days | GI50 | > 10 µM
CC(C)NCCCn1c(Sc2cc(Cl)cc(-c3cccs3)c2)nc2c(N)ncnc21 | cell growth or viability, resazurin | 72 h | IC50 | 5.7 µM
O=C(c1ccc(Br)cc1)N1CCN(CC(OCc2ccc3ccccc3c2)c2ccc(Cl)cc2Cl)CC1 (stereo not shown) | cell growth or viability, MTT | 24 h | IC50 | 43.5 µM
C#CCCCC(F)/C=C/C(=O)NC1(c2ccc(-c3nc4ccn5c(=O)[nH]nc5c4cc3-c3ccccc3)cc2)CCC1 (stereo not shown) | flow cytometry, PI staining | EC80 concentration, 72 h, DMSO 22.2 | cells in S phase | 16.6%
C=Cc1cc(Cl)cc(Sc2nc3c(N)ncnc3n2CCCNC(C)C)c1 | cell growth or viability, resazurin | 72 h | IC50 | 0.13 µM
Cc1nc2c(F)cc(-c3nc(Nc4ccc(CNC(=O)CCCC(=O)NO)cc4)ncc3F)cc2n1C(C)C | cell growth or viability, CCK-8 | 0.3 µM, 48 h | inhibition | 82.9%
C=C(C)c1cc(Cl)cc(Sc2nc3c(N)nc(F)nc3n2CCCNC(C)C)c1 | cell growth or viability, resazurin | 72 h | IC50 | 0.08 µM
CN1CCN(CC(=O)N2CCN(CC(OCc3ccc4ccccc4c3)c3ccc(Cl)cc3Cl)CC2)CC1 (stereo not shown) | cell growth or viability, MTT | 24 h | IC50 | 5.81 µM
COc1cccc(-c2cc(Cl)cc(Sc3nc4c(N)ncnc4n3CCCNC(C)C)c2)c1 | cell growth or viability, resazurin | 72 h | IC50 | > 10 µM
Cc1cc(C)nc(NC(=S)N2CCN(c3ccc(C(F)(F)F)cn3)CC2)c1 | isotope labelling | 10 µM, 4 h, added: U-13C-glucose | M+3 serine pool | decreased
CC(C)(C)OC(=O)N1CCN(CC(OCc2ccc3ccccc3c2)c2ccc(Cl)cc2Cl)CC1 (stereo not shown) | cell growth or viability, MTT | 24 h | IC50 | 17.6 µM
O=C(Nc1nnc2c1c(-c1ccc(Cl)cc1)nc1sc(=Cc3ccco3)c(=O)n12)c1ccccc1 (mixture of isomers) | NCI60 SRB | 10 µM | growth percent | 46.1%
CC(C)NCCCn1c(Sc2cc(Cl)cc(-c3ccoc3)c2)nc2c(N)ncnc21 | cell growth or viability, resazurin | 72 h | IC50 | 0.17 µM
Clc1ccc(C(Cn2cnc3ccccc32)OCc2ccc3ccccc3c2)c(Cl)c1 (stereo not shown) | cell growth or viability, MTT | 24 h | IC50 | > 50 µM

Repeated from above:
SMILES | assay | conditions | quantity | result
C#CCCCC(F)/C=C/C(=O)NC1(c2ccc(-c3nc4ccn5c(=O)[nH]nc5c4cc3-c3ccccc3)cc2)CCC1 (stereo not shown) | flow cytometry, PI staining | EC80 concentration, 72 h, DMSO 22.2 | cells in S phase | 16.6%
O=C(c1ccncc1)N1CCN(CC(OCc2ccc3ccccc3c2)c2ccc(Cl)cc2Cl)CC1 (stereo not shown) | cell growth or viability, MTT | 24 h | IC50 | 42.4 µM
O=C(Nc1nnc2c1c(-c1ccc(Cl)cc1)nc1sc(=Cc3ccco3)c(=O)n12)c1ccccc1 (mixture of isomers) | NCI60 SRB | 10 µM | growth percent | 46.1%
